Results collected from several papers.
Every numbered part comes from another study and shows a few of its results, in no order.

Set 1 — sample: hydrocarbon/water; pH: 7.4; measurement: logD
CCC[C@@H]1NC(=O)[C@H](C)N(C)C(=O)[C@H](CC(C)C)NC(=O)Cn2cc(nn2)CN(C)C(=O)[C@H](CC(C)C)NC(=O)[C@H](C)N(C)C(=O)[C@H](CC2CCCCC2)NC(=O)[C@H](CC)N(C)C(=O)[C@H]2CCCN2C1=O: 0.788
CC[C@@H]1NC(=O)[C@H](C)N(C)C(=O)[C@H]2CCCN2C(=O)[C@H](CC(C)C)NC(=O)CN(CC)C(=O)[C@H](CC(C)C)NC(=O)Cn2cc(nn2)CN(C)C(=O)[C@H](CC(C)C)NC(=O)[C@H](C)N(C)C1=O: -2.28
CCC[C@@H]1NC(=O)CN(CCC)C(=O)[C@H](CC(C)C)NC(=O)Cn2cc(nn2)CN(C)C(=O)[C@H](CC(C)C)NC(=O)[C@H](C)N(C)C(=O)[C@H](CC(C)C)NC(=O)[C@H](C)N(C)C(=O)[C@H]2CCCN2C1=O: -0.951
CCCCCN1CC(=O)NC(CC(C)C)C(=O)N(C)C(C)C(=O)NC(Cc2ccccc2)C(=O)N2CCCC2C(=O)N(Cc2ccc3c(c2)OCO3)CC(=O)NC(CC(C)C)C(=O)N(C)C(C)C(=O)NC(CC(C)C)C(=O)N2CCCC2C1=O (centres unmarked): ≥ 3.4
CC(C)C[C@@H]1NC(=O)CN(Cc2ccc3c(c2)OCO3)C(=O)[C@H](C)NC(=O)[C@H](CC(C)C)N(C)C(=O)[C@H]2CCCN2C(=O)[C@H](Cc2ccccc2)NC(=O)CN(CC2CCCCC2)C(=O)[C@H](C)NC(=O)[C@H](CC(C)C)N(C)C(=O)[C@H]2CCCN2C1=O: 3.04
CCN1CC(=O)N[C@@H](CC(C)C)C(=O)N2CCC[C@@H]2C(=O)N(C)[C@@H](C)C(=O)N[C@@H](CC(C)C)C(=O)N(C)[C@@H](C)C(=O)N[C@@H](CC(C)C)C(=O)N(C)Cc2cn(nn2)CC(=O)N[C@@H](CC(C)C)C1=O: -1.06
CCC[C@@H]1NC(=O)[C@H](C)N(C)C(=O)[C@H](CC(C)C)NC(=O)Cn2cc(nn2)CN(C)C(=O)[C@H](CC(C)C)NC(=O)[C@H](C)N(C)C(=O)[C@H](CC)NC(=O)CN(CCC)C(=O)[C@H]2CCCN2C1=O: -1.53
CC[C@@H]1NC(=O)[C@@H](CC(C)C)NC(=O)[C@H](CC(C)C)NC(=O)[C@H](Cc2ccccc2)NC(=O)[C@H]2CCCN2C(=O)[C@H](CC(C)C)NC1=O: 1
CC(C)C[C@@H]1NC(=O)[C@H](C)N(C)C(=O)[C@H](CC2CCCCC2)NC(=O)[C@H](C)N(C)C(=O)[C@H]2CCCN2C(=O)[C@H](CC2CCCCC2)NC(=O)CN(CC(C)C)C(=O)[C@H](CC(C)C)NC(=O)Cn2cc(nn2)CN(C)C1=O: 2.16
CCC[C@H]1NC(=O)[C@H](CC(C)C)NC(=O)[C@H](Cc2ccc(O)cc2)NC(=O)[C@H]2CCCN2C(=O)[C@H](CC2CCCCC2)NC(=O)[C@H](CC2CCCCC2)NC1=O: 0.807

Set 2 — observed: enzyme activity; action: inhibitor; tested at: 10 µM; measurement: inhibition
Target: Calcium/calmodulin-dependent protein kinase type II subunit alpha (CAMK2A, Homo sapiens, UniProt Q9UQM7)
Chain of UniProt Q9UQM7 (whole entry, looked up): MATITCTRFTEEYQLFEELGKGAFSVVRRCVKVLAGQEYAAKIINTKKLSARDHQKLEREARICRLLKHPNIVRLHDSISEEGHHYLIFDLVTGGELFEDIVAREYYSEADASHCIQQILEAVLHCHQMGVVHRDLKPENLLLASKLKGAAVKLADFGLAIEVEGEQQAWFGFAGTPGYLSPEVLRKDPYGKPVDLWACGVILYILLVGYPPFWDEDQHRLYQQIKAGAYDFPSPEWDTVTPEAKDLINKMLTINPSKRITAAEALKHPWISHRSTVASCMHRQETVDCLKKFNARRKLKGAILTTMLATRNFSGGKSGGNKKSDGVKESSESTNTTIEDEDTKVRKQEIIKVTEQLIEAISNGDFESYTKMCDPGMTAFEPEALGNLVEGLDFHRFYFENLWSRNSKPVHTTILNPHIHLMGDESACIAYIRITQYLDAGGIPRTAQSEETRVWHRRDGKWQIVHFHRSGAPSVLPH
CC(C)CCC[C@@H](C)[C@H]1CC[C@H]2C3=CC=C4C[C@@H](O)CC[C@]4(C)[C@H]3CC[C@]12C: 30%
COc1ccc2cc3n(c(=O)c2c1OC)CCc1cc2c(cc1-3)OCO2: -20%
CO[C@@H]1C=C2[C@@H]3CC(C)(C)CC[C@]3(CO)[C@H](O)C[C@@]2(C)[C@]2(C)CC[C@H]3[C@](C)(CO)[C@@H](O[C@@H]4O[C@H](C)[C@H](O)[C@H](O[C@@H]5O[C@H](CO)[C@@H](O)[C@H](O)[C@H]5O)[C@H]4O)CC[C@]3(C)[C@@H]12: -25%
COc1ccc2c(c1)N(C[C@H](C)CN(C)C)c1ccccc1S2: -8%
C#C[C@]1(O)CC[C@H]2[C@@H]3CCc4cc(OC)ccc4[C@H]3CC[C@@]21C: -6%
O=c1cc(-c2ccc(O)c(O)c2)oc2c([C@@H]3O[C@H](CO)[C@@H](O)[C@H](O)[C@H]3O)c(O)cc(O)c12: -17%
Cc1cc(C(=O)NNCc2ccccc2)no1: 9%
C=C[C@]1(C)C[C@@H](OC(=O)CO)[C@]2(C)[C@H](C)CC[C@]3(CCC(=O)[C@H]32)[C@@H](C)[C@@H]1O: 12%
CCC[C@@]1(CCc2ccccc2)CC(O)=C([C@H](CC)c2cccc(NS(=O)(=O)c3ccc(C(F)(F)F)cn3)c2)C(=O)O1: 7%
CC(OC(=O)NCC1(CC(=O)O)CCCCC1)OC(=O)C(C)C (centres unmarked): 7%
CC(C)=C1CC[C@@H](C)CC1=O: -3%
COc1cc(CCO[C@@H]2O[C@H](CO[C@@H]3O[C@H](CO)[C@@H](O)[C@H](O)[C@H]3O)[C@@H](OC(=O)/C=C/c3ccc(O)c(O)c3)[C@H](O[C@@H]3O[C@@H](C)[C@H](O)[C@@H](O)[C@H]3O)[C@H]2O)ccc1O: -1%
CCOC(=O)CC(O)(CC(=O)OCC)C(=O)OCC: -1%
Cc1ncc([N+](=O)[O-])n1C[C@@H](CN1CCOCC1)OP(=O)(O)O: -6%
C[C@@H]1O[C@@H](Oc2cc(O)c3c(=O)c(O)c(-c4ccc(O)cc4)oc3c2)[C@H](O)[C@H](O)[C@H]1O: -85%
OC1(c2ccc(Cl)c(C(F)(F)F)c2)CCN(CCCC(c2ccc(F)cc2)c2ccc(F)cc2)CC1: 1%
CNc1ncnc2c1ncn2[C@@H]1O[C@H](CO)[C@@H](O)[C@H]1O: -58%
CCCc1cc(=O)[nH]c(=S)[nH]1: 3%
C=C1C[C@@]23CC[C@H]4[C@@](C)(CCC[C@@]4(C)C(=O)O[C@@H]4O[C@H](CO)[C@@H](O)[C@H](O)[C@H]4O[C@@H]4O[C@H](CO)[C@@H](O)[C@H](O)[C@H]4O)[C@@H]2CC[C@]1(O[C@@H]1O[C@H](CO)[C@@H](O)[C@H](O[C@@H]2O[C@H](CO)[C@@H](O)[C@H](O)[C@H]2O)[C@H]1O[C@@H]1O[C@H](CO)[C@@H](O)[C@H](O)[C@H]1O)C3: -8%
COc1cccc2c1C(=O)c1c(O)c3c(c(O)c1C2=O)C[C@@](O)(C(C)=O)C[C@@H]3O[C@H]1C[C@H](N)[C@H](O)[C@H](C)O1: 22%

Set 3 — observed: cell-free assay; tested at: 10 µM; measurement: inhibition
Target: 5-hydroxytryptamine receptor 5A (HTR5A, Homo sapiens, UniProt P47898)
Chain of UniProt P47898 (whole entry, looked up): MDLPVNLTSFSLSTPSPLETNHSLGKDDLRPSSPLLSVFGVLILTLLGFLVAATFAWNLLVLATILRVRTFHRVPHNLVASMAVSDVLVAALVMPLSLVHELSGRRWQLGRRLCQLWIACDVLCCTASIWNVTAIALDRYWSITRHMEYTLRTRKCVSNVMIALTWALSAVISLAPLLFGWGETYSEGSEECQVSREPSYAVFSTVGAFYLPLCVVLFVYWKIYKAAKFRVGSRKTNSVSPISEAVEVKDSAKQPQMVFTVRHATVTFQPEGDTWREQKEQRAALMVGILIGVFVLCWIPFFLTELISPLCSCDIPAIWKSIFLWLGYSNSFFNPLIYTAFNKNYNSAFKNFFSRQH
Cn1nc(C(F)(F)F)cc1-c1cnc(N2CCc3cc(S(=O)(=O)Nc4c(F)cc(Cl)cc4F)cc(N4CCCC4=O)c32)nc1: 7.89%
Cc1cc2c(-c3ccco3)cnc(N[C@@H]3CCN(C)C[C@H]3C(=O)NC3CCCCC3)c2[nH]c1=O: 24.1%
CNC(=O)c1ccc(Nc2ncc(C(F)(F)F)c(NCc3nccnc3N(C)S(C)(=O)=O)n2)cc1: -1.91%
C[C@H](c1ccc(F)cc1)N(Cc1ccc(Cl)c(C(=O)O)c1)C(=O)c1cnc2ccccc2c1: 1.77%
CN(c1ccnc(CNc2nc(Nc3ccc4c(c3)CC(=O)N4)ncc2C(F)(F)F)n1)S(C)(=O)=O: 1.82%
CCOc1cc(N2C3COCC2CN(C(=O)[C@H]2C[C@H](O)CN2c2ccc(Cl)cc2)C3)ccc1Cl: 1.7%
CNC(=O)c1cc(C(=O)N[C@H]2[C@@H]3COC[C@@H]32)cc2c1O[C@H](CF)[C@H]2c1ccccc1: 12.5%
N#CC1(c2ccccn2)CCN(Cc2cc(C(=O)N3CCCC3)c(=O)n3ccccc23)CC1: -19.8%
CN(C)[C@@H]1CCN(c2cc(-c3ccccc3)nc3ccnn23)C1: 13.8%
O=C(NNS(=O)(=O)c1ccccc1F)c1cc(F)cc(-c2ccccn2)c1: -9.77%
COCc1nc2cnc3cc(-c4c(C)noc4C)c(OC[C@H]4CCNC4)cc3c2n1[C@H](C)c1ccccc1: 21.5%
CS(=O)(=O)c1cc(C2(NC(=O)c3cncc4c3cnn4-c3ccc(F)cc3)CC2)ccn1: -14.2%
c1ccc(C2CCN(c3cnc4c(N5CCOCC5)nccn34)CC2)cc1: 19%
CN1C(=O)[C@@H](N2CCc3c(nn(Cc4ccccc4)c3Br)C2=O)COc2ccccc21: 38.2%
CNC(=O)Nc1ccc2c(c1)CC[C@]21OC(=O)N(CC(=O)N(Cc2ccc(F)cc2)[C@@H](C)C(F)(F)F)C1=O: 5.99%
CN1C(=O)[C@@H](N2CCc3cn(Cc4ccccc4)nc3C2=O)COc2ccccc21: 21.1%

Set 4 — observed: enzyme activity; action: inhibitor; tested at: 0.5 µM; reference: control; measurement: remaining activity
Target: NUAK family SNF1-like kinase 2 (NUAK2, Homo sapiens, UniProt Q9H093)
Residues (Q9H093 1-628): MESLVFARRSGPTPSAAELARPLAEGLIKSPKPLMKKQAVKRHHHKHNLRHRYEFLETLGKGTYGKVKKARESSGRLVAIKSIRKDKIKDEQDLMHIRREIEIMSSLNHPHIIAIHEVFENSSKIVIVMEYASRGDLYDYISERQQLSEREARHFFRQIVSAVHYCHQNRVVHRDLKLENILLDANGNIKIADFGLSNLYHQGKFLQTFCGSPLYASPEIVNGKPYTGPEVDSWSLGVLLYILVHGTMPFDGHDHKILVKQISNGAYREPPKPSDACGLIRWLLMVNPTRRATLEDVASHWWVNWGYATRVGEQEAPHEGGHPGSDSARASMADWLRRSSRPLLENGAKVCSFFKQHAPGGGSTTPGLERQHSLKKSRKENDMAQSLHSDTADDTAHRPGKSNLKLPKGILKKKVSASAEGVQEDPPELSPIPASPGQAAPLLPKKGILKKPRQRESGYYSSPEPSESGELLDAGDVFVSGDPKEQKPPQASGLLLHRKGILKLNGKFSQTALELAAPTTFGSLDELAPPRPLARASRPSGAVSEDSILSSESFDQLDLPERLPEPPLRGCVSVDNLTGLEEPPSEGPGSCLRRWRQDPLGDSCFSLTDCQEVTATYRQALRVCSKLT
N#CC(=C(N)Sc1ccc(N)cc1)c1ccccc1C(F)(F)F: 75%
CCCC(=O)Oc1ccc2[nH]c(C(=O)c3cc4ccccc4[nH]3)cc2c1: 73.4%
Nc1nc(Nc2ccc(S(N)(=O)=O)cc2)nn1C(=O)c1c(F)cccc1F: 34%
Cc1ccc(NC2=CC(=O)c3sc(C)nc3C2=O)cc1: 105%
Oc1ccc(Nc2nc(-c3ccc(Cl)cc3)cs2)cc1: 137%
O=C1NC(=O)C(c2c[nH]c3ccccc23)=C1c1c[nH]c2ccccc12: 86%
Cc1cc(Nc2nc(-c3ccccc3)nc3ccccc23)n[nH]1: 71.1%
CC#CC(=O)Nc1cc2c(Nc3ccc(F)c(Cl)c3)ncnc2cn1: 95.4%
Cc1cncc2cccc(S(=O)(=O)N3CCCN(C(=O)CN)C[C@@H]3C)c12: 125%
COc1ccc(S(=O)(=O)N(CCO)c2ccccc2CN(C)CC=Cc2ccc(Cl)cc2)cc1: 113%
CSc1nc(-c2ccnc(N[C@@H](C)c3ccccc3)c2)c(-c2ccc(F)cc2)[nH]1 (racemic): 86.5%
CC[n+]1c(/C=C/N(C)c2ccccc2)n(-c2ccccc2)c2ccc(-c3nc4ccccc4s3)cc21: 93.3%
CCc1[nH]c(-c2ccc(OC)cc2)nc1-c1ccncc1: 129%
Nc1nccc(-c2c(-c3ccc(F)cc3)ncn2C2CCNCC2)n1: 122%
CC(=O)c1ccc(N2CCOCC2)cc1O: 104%
NC(=O)c1ccc(N(C(N)=O)c2c(F)cccc2F)nc1-c1ccc(F)cc1F: 98.7%
Nc1ncnc2c1cnn2-c1ccccc1: 75.2%
O=C1Cc2c([nH]c3ccc([N+](=O)[O-])cc23)-c2ccccc2N1: 68.6%
Fc1ccc(-c2nc3n(c2-c2ccncc2)CCS3)cc1: 135%

Repeated from above (set 4):
Oc1ccc(Nc2nc(-c3ccc(Cl)cc3)cs2)cc1: 137%
Nc1ncnc2c1cnn2-c1ccccc1: 75.2%
O=C1NC(=O)C(c2c[nH]c3ccccc23)=C1c1c[nH]c2ccccc12: 86%
CCc1[nH]c(-c2ccc(OC)cc2)nc1-c1ccncc1: 129%
CC#CC(=O)Nc1cc2c(Nc3ccc(F)c(Cl)c3)ncnc2cn1: 95.4%
CSc1nc(-c2ccnc(N[C@@H](C)c3ccccc3)c2)c(-c2ccc(F)cc2)[nH]1 (racemic): 86.5%
NC(=O)c1ccc(N(C(N)=O)c2c(F)cccc2F)nc1-c1ccc(F)cc1F: 98.7%
Nc1nc(Nc2ccc(S(N)(=O)=O)cc2)nn1C(=O)c1c(F)cccc1F: 34%
CC[n+]1c(/C=C/N(C)c2ccccc2)n(-c2ccccc2)c2ccc(-c3nc4ccccc4s3)cc21: 93.3%
